Experimental data of several laboratories.
Numbers after ± are the reported error.
DRD4: D(4) dopamine receptor (DRD4, Homo sapiens, UniProt P21917)
Chain of UniProt P21917 (whole entry, looked up): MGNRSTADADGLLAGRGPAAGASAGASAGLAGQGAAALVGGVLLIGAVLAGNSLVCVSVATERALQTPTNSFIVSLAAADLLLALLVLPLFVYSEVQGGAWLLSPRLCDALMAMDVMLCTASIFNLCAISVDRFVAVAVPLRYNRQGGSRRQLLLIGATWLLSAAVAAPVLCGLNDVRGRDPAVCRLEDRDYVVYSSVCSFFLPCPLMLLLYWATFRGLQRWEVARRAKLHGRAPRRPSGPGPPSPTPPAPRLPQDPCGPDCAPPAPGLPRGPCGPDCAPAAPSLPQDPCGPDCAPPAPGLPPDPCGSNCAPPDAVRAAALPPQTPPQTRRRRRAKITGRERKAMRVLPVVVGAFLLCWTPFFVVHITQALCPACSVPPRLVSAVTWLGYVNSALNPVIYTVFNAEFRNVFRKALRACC
HDAC8: Histone deacetylase 8 (HDAC8, Homo sapiens, UniProt Q9BY41)
Chain of UniProt Q9BY41 (whole entry, looked up): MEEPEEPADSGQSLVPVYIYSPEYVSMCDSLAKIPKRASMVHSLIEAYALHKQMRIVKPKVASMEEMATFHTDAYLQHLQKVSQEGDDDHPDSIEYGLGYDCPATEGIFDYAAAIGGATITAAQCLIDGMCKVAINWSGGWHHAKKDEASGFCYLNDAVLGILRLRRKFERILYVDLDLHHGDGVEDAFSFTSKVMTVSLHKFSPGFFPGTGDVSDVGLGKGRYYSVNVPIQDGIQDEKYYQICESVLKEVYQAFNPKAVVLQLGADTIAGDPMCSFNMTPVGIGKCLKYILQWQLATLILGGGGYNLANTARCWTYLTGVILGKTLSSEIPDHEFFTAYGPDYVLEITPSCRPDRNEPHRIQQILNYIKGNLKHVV
Bcl-2-related protein A1 C113S/P104K: Bcl-2-related protein A1 (Mus musculus, UniProt Q07440, C113S/P104K)
Chain of UniProt Q07440 (whole entry, unmodified, looked up): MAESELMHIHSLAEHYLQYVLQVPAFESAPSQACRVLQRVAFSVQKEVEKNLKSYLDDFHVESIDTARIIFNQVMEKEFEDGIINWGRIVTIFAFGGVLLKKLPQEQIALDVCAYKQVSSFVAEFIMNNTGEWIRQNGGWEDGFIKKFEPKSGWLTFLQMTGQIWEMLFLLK
CNR1: Cannabinoid receptor 1 (CNR1, Homo sapiens, UniProt P21554)
Chain of UniProt P21554 (whole entry, looked up): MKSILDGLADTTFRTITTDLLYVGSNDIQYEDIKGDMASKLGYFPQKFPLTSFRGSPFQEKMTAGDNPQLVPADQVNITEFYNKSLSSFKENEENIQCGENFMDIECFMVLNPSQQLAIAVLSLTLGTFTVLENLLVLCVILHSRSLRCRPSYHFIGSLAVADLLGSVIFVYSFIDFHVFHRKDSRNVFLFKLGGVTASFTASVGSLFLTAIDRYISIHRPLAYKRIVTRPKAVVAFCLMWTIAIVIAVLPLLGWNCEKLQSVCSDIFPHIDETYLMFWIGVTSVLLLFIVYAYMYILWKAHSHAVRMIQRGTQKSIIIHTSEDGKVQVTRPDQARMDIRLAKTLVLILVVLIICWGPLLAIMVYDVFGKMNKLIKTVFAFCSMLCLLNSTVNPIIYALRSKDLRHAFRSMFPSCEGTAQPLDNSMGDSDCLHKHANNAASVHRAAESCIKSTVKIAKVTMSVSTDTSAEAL
ADRA1A: Alpha-1A adrenergic receptor (ADRA1A, Homo sapiens, UniProt P35348)
Chain of UniProt P35348 (whole entry, looked up): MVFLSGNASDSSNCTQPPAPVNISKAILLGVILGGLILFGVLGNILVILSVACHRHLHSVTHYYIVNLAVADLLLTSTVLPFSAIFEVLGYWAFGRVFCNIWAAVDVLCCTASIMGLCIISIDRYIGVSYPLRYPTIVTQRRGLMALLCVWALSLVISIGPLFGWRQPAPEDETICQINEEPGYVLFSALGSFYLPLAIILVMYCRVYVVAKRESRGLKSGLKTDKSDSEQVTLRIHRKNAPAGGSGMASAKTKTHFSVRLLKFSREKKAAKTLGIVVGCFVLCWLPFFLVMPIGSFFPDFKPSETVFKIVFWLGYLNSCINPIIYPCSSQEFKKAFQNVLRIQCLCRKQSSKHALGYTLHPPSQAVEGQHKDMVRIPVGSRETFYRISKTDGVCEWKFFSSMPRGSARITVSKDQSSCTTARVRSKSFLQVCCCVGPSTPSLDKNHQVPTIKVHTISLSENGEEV
POL4: DNA polymerase IV (POL4, Saccharomyces cerevisiae, UniProt P25615)
Chain of UniProt P25615 (whole entry, looked up): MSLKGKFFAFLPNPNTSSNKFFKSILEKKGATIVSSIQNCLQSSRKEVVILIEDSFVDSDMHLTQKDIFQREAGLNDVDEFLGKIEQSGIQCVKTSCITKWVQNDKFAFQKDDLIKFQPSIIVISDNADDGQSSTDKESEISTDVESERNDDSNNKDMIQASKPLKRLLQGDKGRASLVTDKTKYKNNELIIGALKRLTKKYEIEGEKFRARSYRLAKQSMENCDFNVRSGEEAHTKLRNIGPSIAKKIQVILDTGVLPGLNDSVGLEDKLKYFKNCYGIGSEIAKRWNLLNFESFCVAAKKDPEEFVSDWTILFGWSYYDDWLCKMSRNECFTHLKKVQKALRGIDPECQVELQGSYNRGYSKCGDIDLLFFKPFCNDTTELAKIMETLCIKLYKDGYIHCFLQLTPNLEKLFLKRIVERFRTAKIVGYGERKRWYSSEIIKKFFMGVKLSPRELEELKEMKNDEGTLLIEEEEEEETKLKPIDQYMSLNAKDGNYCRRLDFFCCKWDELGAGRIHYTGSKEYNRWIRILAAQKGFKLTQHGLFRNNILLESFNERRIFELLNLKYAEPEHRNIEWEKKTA
Chain of UniProt Q16739 (whole entry, looked up): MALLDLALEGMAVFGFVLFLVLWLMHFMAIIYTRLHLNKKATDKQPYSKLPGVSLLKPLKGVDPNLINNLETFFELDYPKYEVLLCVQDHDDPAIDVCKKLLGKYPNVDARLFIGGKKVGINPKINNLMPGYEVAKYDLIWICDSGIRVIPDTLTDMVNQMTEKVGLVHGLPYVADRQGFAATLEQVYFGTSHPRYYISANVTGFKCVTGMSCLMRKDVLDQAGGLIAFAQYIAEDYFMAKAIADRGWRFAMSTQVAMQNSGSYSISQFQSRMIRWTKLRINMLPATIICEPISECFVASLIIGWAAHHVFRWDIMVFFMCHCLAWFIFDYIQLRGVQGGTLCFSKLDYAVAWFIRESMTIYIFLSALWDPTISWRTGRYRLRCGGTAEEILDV
Chain of UniProt Q9H3R0 (whole entry, looked up): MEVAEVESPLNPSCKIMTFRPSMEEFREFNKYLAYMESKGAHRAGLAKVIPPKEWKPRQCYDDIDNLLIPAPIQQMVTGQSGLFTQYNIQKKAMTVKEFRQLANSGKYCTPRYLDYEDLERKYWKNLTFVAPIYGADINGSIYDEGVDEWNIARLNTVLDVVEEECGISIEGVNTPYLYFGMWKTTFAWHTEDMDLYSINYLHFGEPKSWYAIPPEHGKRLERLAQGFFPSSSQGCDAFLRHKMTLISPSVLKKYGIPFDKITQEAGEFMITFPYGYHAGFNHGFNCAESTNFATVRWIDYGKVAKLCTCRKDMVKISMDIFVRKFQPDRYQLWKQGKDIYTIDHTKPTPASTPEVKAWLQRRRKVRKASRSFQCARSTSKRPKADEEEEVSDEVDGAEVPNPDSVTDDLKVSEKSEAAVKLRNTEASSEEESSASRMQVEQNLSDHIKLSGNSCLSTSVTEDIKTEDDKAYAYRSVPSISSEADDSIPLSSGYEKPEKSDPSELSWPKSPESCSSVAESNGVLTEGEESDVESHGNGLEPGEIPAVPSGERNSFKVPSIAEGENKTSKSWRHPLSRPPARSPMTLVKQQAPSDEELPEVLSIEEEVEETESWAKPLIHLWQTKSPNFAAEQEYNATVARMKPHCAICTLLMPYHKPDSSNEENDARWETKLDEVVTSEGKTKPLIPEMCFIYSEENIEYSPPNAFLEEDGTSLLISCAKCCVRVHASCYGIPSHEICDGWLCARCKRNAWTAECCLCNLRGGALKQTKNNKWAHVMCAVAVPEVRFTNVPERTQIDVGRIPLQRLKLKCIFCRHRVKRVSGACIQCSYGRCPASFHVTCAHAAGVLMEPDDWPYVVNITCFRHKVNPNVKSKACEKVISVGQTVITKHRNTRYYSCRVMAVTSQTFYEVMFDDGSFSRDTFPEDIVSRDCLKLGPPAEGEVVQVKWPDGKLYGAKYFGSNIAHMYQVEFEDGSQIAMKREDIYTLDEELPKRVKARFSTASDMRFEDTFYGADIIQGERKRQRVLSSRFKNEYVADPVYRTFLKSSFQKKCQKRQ
Chain of UniProt Q8ILG2 (whole entry, looked up): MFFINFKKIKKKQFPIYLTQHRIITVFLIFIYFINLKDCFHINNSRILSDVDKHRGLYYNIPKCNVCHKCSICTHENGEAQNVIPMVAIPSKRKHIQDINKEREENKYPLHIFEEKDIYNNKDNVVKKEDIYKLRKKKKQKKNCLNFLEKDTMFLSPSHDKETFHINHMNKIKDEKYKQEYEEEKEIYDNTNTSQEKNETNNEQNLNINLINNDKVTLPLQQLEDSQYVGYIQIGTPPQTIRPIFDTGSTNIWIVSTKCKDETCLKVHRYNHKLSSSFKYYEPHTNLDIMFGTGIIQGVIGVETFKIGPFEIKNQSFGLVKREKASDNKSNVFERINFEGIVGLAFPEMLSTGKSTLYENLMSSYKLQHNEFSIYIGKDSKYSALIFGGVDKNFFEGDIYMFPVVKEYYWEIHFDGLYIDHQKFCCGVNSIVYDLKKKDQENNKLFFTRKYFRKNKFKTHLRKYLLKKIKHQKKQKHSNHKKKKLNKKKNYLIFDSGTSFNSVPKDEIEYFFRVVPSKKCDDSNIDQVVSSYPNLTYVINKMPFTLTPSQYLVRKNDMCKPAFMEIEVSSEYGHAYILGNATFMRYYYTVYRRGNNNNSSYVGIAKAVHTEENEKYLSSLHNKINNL

SMILES	target	test	system	conditions	how to read	Ki [nM]
CC(C)(O)c1ccc(N2Cc3c(ccnc3-c3ccc(F)cc3OCC(F)(F)F)C2=O)cc1	Ceramide glucosyltransferase (UGCG, Homo sapiens, UniProt Q16739)	enzyme activity, noncompetitive inhibitor, steady-state kinetics	–	–	baseline: versus ceramide	5.2 ± 1.4
COc1ccc(CN2CCC(F)(F)C(COc3ccc(Cl)c(F)c3)C2)cc1F (stereo not shown)	DRD4	ligand displacement, radioligand	–	cell membranes	–	53
O=C(NO)c1cccc(OS(=O)(=O)Oc2ccccc2)c1	HDAC8	enzyme activity, inhibitor, fluorescence	–	–	–	77
c1ccc(CN2COc3c(c4c(c5c3CN(Cc3ccccc3)CO5)CN(Cc3ccccc3)CO4)C2)cc1	Bcl-2-related protein A1 C113S/P104K	ligand displacement, FP	–	–	–	19700
CCOC(=O)[C@](CC)(CCCSCCOCCOCCNC(=O)OC(C)(C)C)NC(=O)c1ccc(C2CC2)c(Cc2ccc(F)cc2)n1	CNR1	ligand displacement, radioligand	–	cell membranes	–	163
Cn1ccc2c(N3CCN(CCCCOc4ccc5c(c4)NC(=O)CC5)CC3)cccc21	5-hydroxytryptamine receptor 6 (HTR6, Homo sapiens, UniProt P50406)	ligand displacement, radioligand	–	–	–	1250
CNC[C@H](O)c1cccc(OCCOCCOCCOCC#Cc2cccc(Cn3c(-c4ccccc4)c(-c4ccccc4)c4c(=N)n([C@H]5CC[C@H](O)CC5)cnc43)c2)c1	ADRA1A	ligand displacement, radioligand	–	cell membranes	–	1120
CCOc1cnc(C#N)cc1-c1ccn2nc(NC(=O)C3CC3)cc2c1	Serine/threonine-protein kinase SIK2 (SIK2, Homo sapiens, UniProt Q9H0K1)	enzyme activity, inhibitor	–	–	–	1.65
CCc1c(Cl)cccc1N1CCN(C[C@H](F)CCNC(=O)c2cc3ccccc3[nH]2)CC1	DRD4	ligand displacement, radioligand	–	cell membranes	–	> 10000
Cc1cc(OCC2CN(Cc3ncn4ccccc34)CCC2(F)F)ccc1F (stereo not shown)	DRD4	ligand displacement, radioligand	–	cell membranes	–	6.5
CC(C)(C)c1cccc(OS(=O)(=O)Oc2cc(F)cc(C(=O)NO)c2)c1	HDAC8	enzyme activity, inhibitor, fluorescence	–	–	–	4560
CN1CCC[C@@H]1C(=O)N[C@@H](Cc1ccc(-c2ccccc2)cc1)B(O)O	20S proteasome (Plasmodium falciparum, UniProt A0A5K1K7U1+Q8IJT1)	inhibitor, progress curve	–	–	–	2.8
CC(C)c1ccc(N(C)c2ccc3c(c2)OCC[C@H]3CNc2cnccc2C(=O)O)cc1	Lysine-specific demethylase 4C (KDM4C, Homo sapiens, UniProt Q9H3R0)	enzyme activity, inhibitor, TR-FRET, measured: H3K9me3 demethylation	–	–	–	38 ± 4
O=P(O)(O)OP(=O)(O)OP(=O)(O)OCCCCO	POL4	DNA polymerase activity, inhibitor, [3H]dTTP incorporation	–	added: poly(dA)/oligo(dT)	–	29000
O=C(NO)c1cc(F)cc(OS(=O)(=O)Oc2ccc(Br)cc2)c1	HDAC8	enzyme activity, inhibitor, fluorescence	–	–	–	791
Cn1cnc2cc(CN3CCC(F)(F)C(COc4cccc(F)c4)C3)ccc21 (stereo not shown)	DRD4	ligand displacement, radioligand	–	cell membranes	–	11.8
CCOC(=O)C(CC)(CCCSCCOCCOCCOCCN)NC(=O)c1ccc(C2CC2)c(Cc2ccc(F)cc2)n1 (stereo not shown)	CNR1	ligand displacement, radioligand	–	cell membranes	–	724
O=C(OCCCCOP(=O)(O)OP(=O)(O)OP(=O)(O)O)c1ccccc1	POL4	DNA polymerase activity, inhibitor, [3H]dTTP incorporation	–	added: poly(dA)/oligo(dT)	–	2200
CCOC(=O)C(CC)(CCCSCCOCCNc1ccc([N+](=O)[O-])c2nonc12)NC(=O)c1ccc(C2CC2)c(Cc2ccc(F)cc2)n1 (stereo not shown)	CNR1	ligand displacement, radioligand	–	cell membranes	–	418

SMILES	target	test	system	conditions	how to read	Ki [nM]
O=S(=O)(O)c1ccc(N=Nc2ccc(O)cc2O)cc1	Bcl-2-related protein A1 C113S/P104K	ligand displacement, FP	–	–	–	4040
CC(C)(C)c1ccccc1OS(=O)(=O)Oc1cccc(C(=O)NO)c1	HDAC8	enzyme activity, inhibitor, fluorescence	–	–	–	95
CCOC(=O)C(CC)(CCCSCCOCCN)NC(=O)c1ccc(C2CC2)c(Cc2ccc(F)cc2)n1 (stereo not shown)	CNR1	ligand displacement, radioligand	–	cell membranes	–	200
COc1ccc(CN2CCC(F)(F)C(COc3ccc(C)c(F)c3)C2)cc1F (stereo not shown)	DRD4	ligand displacement, radioligand	–	cell membranes	–	72
O=C(NCCOP(=O)(O)OP(=O)(O)OP(=O)(O)O)OCC1c2ccccc2-c2ccccc21	POL4	DNA polymerase activity, inhibitor, [3H]dTTP incorporation	–	added: poly(dA)/oligo(dT)	–	450
c1ccc(OC[C@H]2CN(CCN3CCc4ccccc43)CCO2)nc1	DRD4	ligand displacement, radioligand	–	–	–	814
CCOC(=O)C(CC)(CCCSCCOCCOCCOCCOCCNc1ccc([N+](=O)[O-])c2nonc12)NC(=O)c1ccc(C2CC2)c(Cc2ccc(F)cc2)n1 (stereo not shown)	CNR1	ligand displacement, radioligand	–	cell membranes	–	617
O=C(NO)c1cccc(OS(=O)(=O)Oc2cccc([N+](=O)[O-])c2)c1	HDAC8	enzyme activity, inhibitor, fluorescence	–	–	–	22
CC1Cc2ccccc2N1C(=O)CN1CCN(c2ccccc2)CC1 (stereo not shown)	ADRA1A	ligand displacement, radioligand	–	–	–	2010
COc1ccc(CN2CCC(F)(F)C(COc3cccc(Cl)n3)C2)cc1F (stereo not shown)	DRD4	ligand displacement, radioligand	–	cell membranes	–	210
Fc1ccc(-c2ccc3c(n2)[nH]c2ccncc23)cn1	Microtubule-associated protein tau, PSP brain aggregates (MAPT, Homo sapiens, UniProt P10636)	binding	PSP human brain tissue	added: [3H]PI-2620	–	28.3
CCC1(CC)CC(=O)N(C2CCOc3ccc(C(=O)NC4CC(C)(C)Oc5ccccc54)cc32)C(=N)N1 (stereo not shown)	Plasmepsin IX (Plasmodium falciparum, UniProt Q8ILG2)	enzyme activity, inhibitor, peptide cleavage	–	–	–	0.733 ± 0.126
Cn1ncc2cc(CN3CCC(F)(F)C(COc4cccc(C#N)c4)C3)ccc21 (stereo not shown)	DRD4	ligand displacement, radioligand	–	cell membranes	–	59.6
O=C(CN1CCO[C@@H](COc2cccc(Cl)c2)C1)N1CCc2ccccc21	DRD4	ligand displacement, radioligand	–	–	–	536
COc1ccc(CN2CCC(F)(F)C(COc3ccc(F)cc3)C2)cc1F (stereo not shown)	DRD4	ligand displacement, radioligand	–	cell membranes	–	220
CCOC(=O)[C@](CC)(CCCSCCOCCOCCNC(=O)CCCCCN1C(=CC=CC=CC2=[N+](C)c3ccc4ccccc4c3C2(C)C)C(C)(C)c2c1ccc1ccccc21)NC(=O)c1ccc(C2CC2)c(Cc2ccc(F)cc2)n1	CNR1	ligand displacement, radioligand	–	cell membranes	–	108
Cn1ncc2cc(CN3CCC(F)(F)C(COc4ccc(C#N)c(F)c4)C3)ccc21 (stereo not shown)	DRD4	ligand displacement, radioligand	–	cell membranes	–	3.8
C[C@H]1Cc2ccccc2N1C(=O)NCCCCN(C)[C@@H]1Cc2cccc3[nH]c(=O)n(c23)C1	DRD4	binding	–	–	–	25.5 ± 3.18
